Measurements gathered from unrelated publications.
Compare with care: the assays were run in different laboratories. Values joined by “and” are separate records of one study, mostly repeats; a detail may differ. Numbers after ± are the reported error.
Protein AF-9 with DOT1L: Protein AF-9, with DOT1L (Homo sapiens, UniProt P42568)
UniProt P42568, sequence (whole entry, looked up): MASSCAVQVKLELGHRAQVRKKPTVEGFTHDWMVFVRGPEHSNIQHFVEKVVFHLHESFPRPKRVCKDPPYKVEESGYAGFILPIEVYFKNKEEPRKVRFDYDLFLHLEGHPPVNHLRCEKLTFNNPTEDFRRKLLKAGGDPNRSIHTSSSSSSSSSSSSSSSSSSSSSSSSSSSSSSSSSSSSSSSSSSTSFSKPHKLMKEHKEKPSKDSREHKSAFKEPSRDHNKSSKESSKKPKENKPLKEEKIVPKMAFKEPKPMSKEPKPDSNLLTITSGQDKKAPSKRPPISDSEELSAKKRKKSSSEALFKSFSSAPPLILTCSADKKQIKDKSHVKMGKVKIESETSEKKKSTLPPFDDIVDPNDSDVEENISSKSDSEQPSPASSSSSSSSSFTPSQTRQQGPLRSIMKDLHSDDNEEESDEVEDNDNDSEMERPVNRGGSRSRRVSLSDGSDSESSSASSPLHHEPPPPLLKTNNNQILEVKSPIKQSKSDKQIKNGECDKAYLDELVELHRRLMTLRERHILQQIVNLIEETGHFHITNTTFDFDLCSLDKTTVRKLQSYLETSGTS
BRD9: Bromodomain-containing protein 9 (BRD9, Homo sapiens, UniProt Q9H8M2)
UniProt Q9H8M2, sequence (whole entry, looked up): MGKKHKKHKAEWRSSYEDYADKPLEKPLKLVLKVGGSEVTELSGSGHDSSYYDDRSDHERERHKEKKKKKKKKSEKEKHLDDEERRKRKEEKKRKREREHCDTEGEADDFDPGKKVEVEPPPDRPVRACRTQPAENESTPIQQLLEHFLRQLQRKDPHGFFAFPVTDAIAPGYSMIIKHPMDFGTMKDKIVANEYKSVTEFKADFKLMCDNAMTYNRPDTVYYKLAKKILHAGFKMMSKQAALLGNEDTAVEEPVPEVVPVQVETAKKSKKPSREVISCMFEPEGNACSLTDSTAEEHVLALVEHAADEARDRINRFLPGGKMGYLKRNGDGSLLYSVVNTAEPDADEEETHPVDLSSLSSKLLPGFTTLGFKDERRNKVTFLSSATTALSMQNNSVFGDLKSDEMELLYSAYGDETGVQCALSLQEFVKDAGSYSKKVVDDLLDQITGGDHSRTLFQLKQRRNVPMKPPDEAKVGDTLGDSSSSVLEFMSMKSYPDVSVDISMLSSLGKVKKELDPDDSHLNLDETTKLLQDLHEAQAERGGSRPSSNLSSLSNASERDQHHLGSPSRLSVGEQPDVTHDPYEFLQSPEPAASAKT
UniProt Q8IWT6, sequence (whole entry, unmodified, looked up): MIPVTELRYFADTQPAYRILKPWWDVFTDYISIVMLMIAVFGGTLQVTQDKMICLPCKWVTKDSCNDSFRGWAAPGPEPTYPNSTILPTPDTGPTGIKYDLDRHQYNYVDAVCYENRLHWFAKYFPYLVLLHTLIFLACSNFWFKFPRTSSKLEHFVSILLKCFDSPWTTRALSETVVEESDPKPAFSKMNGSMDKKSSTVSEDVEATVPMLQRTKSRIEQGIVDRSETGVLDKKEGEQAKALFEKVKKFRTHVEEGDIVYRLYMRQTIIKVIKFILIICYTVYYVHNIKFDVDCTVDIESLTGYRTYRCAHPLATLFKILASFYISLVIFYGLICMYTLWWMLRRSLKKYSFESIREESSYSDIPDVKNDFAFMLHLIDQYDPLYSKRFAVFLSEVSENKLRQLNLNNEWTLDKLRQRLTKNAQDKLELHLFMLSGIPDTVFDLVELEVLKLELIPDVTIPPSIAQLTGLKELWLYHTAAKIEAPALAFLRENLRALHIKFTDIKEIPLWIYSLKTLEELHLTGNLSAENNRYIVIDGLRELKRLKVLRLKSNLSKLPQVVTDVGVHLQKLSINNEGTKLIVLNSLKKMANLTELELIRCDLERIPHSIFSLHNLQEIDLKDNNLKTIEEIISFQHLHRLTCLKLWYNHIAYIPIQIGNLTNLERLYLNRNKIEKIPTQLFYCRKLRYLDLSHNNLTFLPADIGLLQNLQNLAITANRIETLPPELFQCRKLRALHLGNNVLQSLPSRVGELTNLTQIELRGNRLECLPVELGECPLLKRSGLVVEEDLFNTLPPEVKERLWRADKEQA
UniProt P48048, sequence (whole entry, looked up): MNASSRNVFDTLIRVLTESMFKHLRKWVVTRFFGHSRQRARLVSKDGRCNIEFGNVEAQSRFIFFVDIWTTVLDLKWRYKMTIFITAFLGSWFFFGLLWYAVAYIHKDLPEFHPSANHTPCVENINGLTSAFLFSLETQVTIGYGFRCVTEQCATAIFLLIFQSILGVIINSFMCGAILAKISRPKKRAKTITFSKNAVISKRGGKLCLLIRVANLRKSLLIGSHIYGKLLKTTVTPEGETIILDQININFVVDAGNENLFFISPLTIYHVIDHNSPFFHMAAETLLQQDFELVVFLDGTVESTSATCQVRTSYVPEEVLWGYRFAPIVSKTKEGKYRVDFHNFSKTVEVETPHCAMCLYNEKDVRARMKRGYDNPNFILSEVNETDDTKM
UniProt P11607, sequence (whole entry, looked up): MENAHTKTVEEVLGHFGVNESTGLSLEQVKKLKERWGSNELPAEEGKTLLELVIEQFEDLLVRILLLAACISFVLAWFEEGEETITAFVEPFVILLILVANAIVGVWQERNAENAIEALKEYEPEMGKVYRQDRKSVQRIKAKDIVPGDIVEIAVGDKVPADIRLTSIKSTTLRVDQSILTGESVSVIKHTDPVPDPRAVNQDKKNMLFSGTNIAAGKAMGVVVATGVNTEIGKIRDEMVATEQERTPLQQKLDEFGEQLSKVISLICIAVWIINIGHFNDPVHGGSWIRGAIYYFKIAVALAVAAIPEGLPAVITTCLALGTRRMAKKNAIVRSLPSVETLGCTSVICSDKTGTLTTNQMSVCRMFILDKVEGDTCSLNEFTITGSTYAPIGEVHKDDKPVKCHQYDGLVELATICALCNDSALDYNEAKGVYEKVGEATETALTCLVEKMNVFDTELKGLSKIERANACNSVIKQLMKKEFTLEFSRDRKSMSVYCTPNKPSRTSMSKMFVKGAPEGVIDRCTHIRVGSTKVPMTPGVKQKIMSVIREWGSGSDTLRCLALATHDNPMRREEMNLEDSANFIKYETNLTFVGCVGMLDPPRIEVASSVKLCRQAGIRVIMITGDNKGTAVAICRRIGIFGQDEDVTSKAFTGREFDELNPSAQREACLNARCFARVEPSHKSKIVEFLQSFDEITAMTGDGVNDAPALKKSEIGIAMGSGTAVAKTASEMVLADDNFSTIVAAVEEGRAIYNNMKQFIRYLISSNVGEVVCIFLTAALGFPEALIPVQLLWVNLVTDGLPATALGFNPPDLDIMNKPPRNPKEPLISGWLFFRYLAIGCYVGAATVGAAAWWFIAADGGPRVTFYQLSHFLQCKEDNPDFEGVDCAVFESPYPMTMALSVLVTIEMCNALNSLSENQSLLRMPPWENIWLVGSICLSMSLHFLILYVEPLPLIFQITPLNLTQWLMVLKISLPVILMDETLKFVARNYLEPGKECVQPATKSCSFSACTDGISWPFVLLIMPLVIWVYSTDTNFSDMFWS
UniProt P32241, sequence (whole entry, looked up): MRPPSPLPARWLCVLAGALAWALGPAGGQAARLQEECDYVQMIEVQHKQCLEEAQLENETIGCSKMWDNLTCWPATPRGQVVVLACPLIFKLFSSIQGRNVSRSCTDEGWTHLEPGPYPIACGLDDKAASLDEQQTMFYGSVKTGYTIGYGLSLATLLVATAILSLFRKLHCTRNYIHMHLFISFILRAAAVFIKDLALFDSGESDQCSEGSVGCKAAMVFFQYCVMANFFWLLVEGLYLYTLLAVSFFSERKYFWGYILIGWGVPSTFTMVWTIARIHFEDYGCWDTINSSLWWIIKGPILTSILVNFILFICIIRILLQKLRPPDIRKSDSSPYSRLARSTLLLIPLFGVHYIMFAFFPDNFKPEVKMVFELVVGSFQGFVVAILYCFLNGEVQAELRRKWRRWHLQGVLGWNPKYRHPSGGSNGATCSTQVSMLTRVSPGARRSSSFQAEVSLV
UniProt P48730, sequence (whole entry, looked up): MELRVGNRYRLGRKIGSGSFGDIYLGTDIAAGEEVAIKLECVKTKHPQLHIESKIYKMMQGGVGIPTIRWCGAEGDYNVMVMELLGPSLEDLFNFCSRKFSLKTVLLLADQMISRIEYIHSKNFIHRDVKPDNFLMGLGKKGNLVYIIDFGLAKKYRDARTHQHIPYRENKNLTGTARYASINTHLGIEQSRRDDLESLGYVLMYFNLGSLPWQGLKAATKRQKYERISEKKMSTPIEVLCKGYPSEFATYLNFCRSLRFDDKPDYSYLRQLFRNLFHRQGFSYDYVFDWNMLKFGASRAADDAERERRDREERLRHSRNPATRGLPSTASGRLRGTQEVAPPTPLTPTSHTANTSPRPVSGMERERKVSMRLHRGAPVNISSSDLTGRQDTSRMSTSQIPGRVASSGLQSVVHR
UniProt O96017, sequence (whole entry, looked up): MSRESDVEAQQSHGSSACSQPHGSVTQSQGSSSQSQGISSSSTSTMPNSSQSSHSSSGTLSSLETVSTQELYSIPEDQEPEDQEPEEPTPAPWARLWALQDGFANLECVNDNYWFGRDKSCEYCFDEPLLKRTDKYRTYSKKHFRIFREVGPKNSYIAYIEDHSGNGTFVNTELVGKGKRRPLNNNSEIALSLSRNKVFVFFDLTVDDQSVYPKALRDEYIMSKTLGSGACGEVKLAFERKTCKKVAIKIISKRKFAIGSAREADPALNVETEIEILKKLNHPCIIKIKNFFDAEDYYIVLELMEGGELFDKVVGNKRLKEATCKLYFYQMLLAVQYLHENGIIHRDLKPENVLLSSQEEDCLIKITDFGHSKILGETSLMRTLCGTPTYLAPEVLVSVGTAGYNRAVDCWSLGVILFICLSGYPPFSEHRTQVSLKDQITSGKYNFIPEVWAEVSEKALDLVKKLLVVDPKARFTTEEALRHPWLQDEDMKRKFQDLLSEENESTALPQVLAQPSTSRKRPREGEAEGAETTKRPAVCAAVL

For CN(c1ncccc1CNc1nc(Nc2ccc3c(c2)CC(=O)N3)ncc1C(F)(F)F)S(C)(=O)=O, the inhibition was 0% (CK1 (rat); kinase activity; 1 µM).
The inhibition of CN1CCN(c2cc(-c3ccncc3)c(-c3ccc4ccccc4c3)nn2)CC1 is reported as 4% (Vasoactive intestinal polypeptide receptor 1 (VIPR1, Homo sapiens, UniProt P32241); antagonist, FLIPR; 10 µM).
With O=C(Nc1ccc(S(=O)(=O)N2CCC(Cl)CC2)cc1)c1ccc([N+](=O)[O-])o1 the inhibition was 12% (rat rolipram binding site; radioligand binding; 10 µM).
c1cc(C2CCCCC2)ccc1Oc1ccc2ncc(OCC3CCNCC3)nc2c1 gave an inhibition of 2 to 16% (Protein AF-9 with DOT1L; DOT1L binding, AlphaLISA; 10 µM).
CNC(=O)c1cc(OC)c(-c2cc(C(C)=O)n3ccccc23)cc1OC has an inhibition of 94.6% (BRD9; AlphaScreen; 1 µM).
With CC[C@@H]1[C@H](F)C(=O)N[C@@H]1COc1nccc2cc(C(N)=O)c(OC)cc12 the inhibition was 3.8% (Serine/threonine-protein kinase Chk2 (CHEK2, Homo sapiens, UniProt O96017); ATP-site probe binding, ActivX profiling; THP-1 cell lysate; 0.2 mM, Lys1 site).
For Cc1cc(CCOCCCCCc2ccccc2)cc2nc[nH]c12, the inhibition was about 29% (ATP2A2 (Sus scrofa, UniProt P11607); ATPase activity; pig microsomes; 50 µM).
The inhibition of CN(C(=O)n1cnc(-c2ccc[n+]([O-])c2)c1)C1CCCCC1 is reported as -13.8% (Neuromedin-K receptor (TACR3, Homo sapiens, UniProt P29371); 10 µM).
Cc1ccc(C(=O)Nc2ccc3ccccc3c2)o1 gave an inhibition of 4.29% and 0.19% and 0% and 7.73% and 4.69% (ATP-sensitive inward rectifier potassium channel 1 (Homo sapiens, UniProt P48048); ion current, inhibitor, whole-cell patch clamp; 10 µM).
CCc1oc2ccccc2c1C(=O)c1cc(Br)c(O)c(Br)c1 gave an inhibition of 69.3% (Solute carrier family 22 member 12 (SLC22A12, Homo sapiens, UniProt Q96S37, H245A); uric acid uptake; HEK293T transfected with SLC22A12 H245A; 0.5 µM, 10 min, 37 °C, mean, added: [14C]urate 200 µM).
With c1cc(-c2ccc(-c3ccc4ncc(OCC5CCNCC5)nc4c3)cc2)ccn1 the inhibition was 14 to 17% (Protein AF-9 with DOT1L; DOT1L binding, AlphaLISA; 10 µM).
Fc1ccc(-c2ncn(-c3ccc4ccccc4c3)c2-c2ccncc2)cc1 gave an inhibition of 1% (Casein kinase I isoform delta (CSNK1D, Homo sapiens, UniProt P48730); inhibitor; 1 µM).
For COc1nc(-c2cccc(-c3ccccc3)c2C)ccc1CNCCCCCCCCCCC(=O)N(C)CCCC12CCC(c3ccccc31)c1ccccc12, the inhibition was 36.2 ± 1.3% (Programmed cell death 1 ligand 1 (CD274, Homo sapiens, UniProt Q9NZQ7); binding, inhibitor, HTRF; 1 µM).
COc1cc(OC)cc(-c2cc(C(C)=O)n3ccccc23)c1 has an inhibition of over 90% (BRD9; AlphaScreen; 1 µM).
CNC(=O)[C@H](CNC(=O)CCn1c(=O)[nH]c(=O)c2ccccc21)NC(=O)c1cnc2ccccc2c1: inhibition “inhibited” (Protein mono-ADP-ribosyltransferase PARP10 (PARP10, Homo sapiens, UniProt Q53GL7); enzyme activity, inhibitor; concentration not given).
O=C(NC1CCNCC1)c1ccc2nc(-c3ccc(Br)cc3)c(-c3ccc(Br)cc3)nc2c1 gave an inhibition of 33% (Protein AF-9 with DOT1L; DOT1L binding, AlphaLISA; 10 µM).
CCC(=O)c1cc(-c2cc(OC)c(Cn3ccnc3)c(OC)c2)c2ccccn12 gave an inhibition of 94.7% (BRD9; AlphaScreen; 1 µM).
O=C(Nc1cccc2c(=O)cc(-c3nnn[nH]3)oc12)c1ccc(OCCCCc2ccccc2)cc1 gave an inhibition of 7.38% and -2.61% and 3.61% (LRRC8A/LRRC8C (Homo sapiens, UniProt Q8IWT6+Q8TDW0, M48D/T48D); ion current, whole-cell patch clamp; HCT LRRC8-/- cells; 3 µM, +100 mV, T48D/M48D heteromers).

Some of these lines once more:
c1cc(C2CCCCC2)ccc1Oc1ccc2ncc(OCC3CCNCC3)nc2c1 gave an inhibition of 2 to 16% (Protein AF-9 with DOT1L; DOT1L binding, AlphaLISA; 10 µM).
CNC(=O)c1cc(OC)c(-c2cc(C(C)=O)n3ccccc23)cc1OC has an inhibition of 94.6% (BRD9; AlphaScreen; 1 µM).
